Published values collected from several papers.
Every numbered part comes from another study and shows a few of its results, in no order.

Study 1
Target: PABPC1L2, full length, GST fusion (mouse, UniProt A0ABA7IW68)
Method: RNAcompete
Form: RNA
Medium: in vitro
Tested at: 20 nM
Notes: 7-mer, probes averaged, single round
Relative to: mean of 7-mers
Direction: higher = stronger binding
Target sequence (chain): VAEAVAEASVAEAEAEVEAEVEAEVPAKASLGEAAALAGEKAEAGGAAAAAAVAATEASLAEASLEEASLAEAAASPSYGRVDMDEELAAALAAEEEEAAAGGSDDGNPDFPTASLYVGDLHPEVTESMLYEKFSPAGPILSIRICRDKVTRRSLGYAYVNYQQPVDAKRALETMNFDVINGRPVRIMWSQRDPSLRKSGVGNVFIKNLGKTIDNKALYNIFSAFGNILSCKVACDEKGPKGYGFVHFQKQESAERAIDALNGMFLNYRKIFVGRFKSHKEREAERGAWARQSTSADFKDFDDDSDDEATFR
| Oligonucleotide | 7-mer Z-score |
| --- | --- |
| AAGUAAU | 0.0587 |
| CCUAUAU | -0.275 |
| AAGCCUA | -0.108 |
| CUCGGUU | -0.354 |

Study 2
Target: Ras GTPase-activating protein-binding protein 1, C-terminal RGG region (G3BP1, Homo sapiens, UniProt Q13283)
Sequence of UniProt Q13283 (whole entry, looked up): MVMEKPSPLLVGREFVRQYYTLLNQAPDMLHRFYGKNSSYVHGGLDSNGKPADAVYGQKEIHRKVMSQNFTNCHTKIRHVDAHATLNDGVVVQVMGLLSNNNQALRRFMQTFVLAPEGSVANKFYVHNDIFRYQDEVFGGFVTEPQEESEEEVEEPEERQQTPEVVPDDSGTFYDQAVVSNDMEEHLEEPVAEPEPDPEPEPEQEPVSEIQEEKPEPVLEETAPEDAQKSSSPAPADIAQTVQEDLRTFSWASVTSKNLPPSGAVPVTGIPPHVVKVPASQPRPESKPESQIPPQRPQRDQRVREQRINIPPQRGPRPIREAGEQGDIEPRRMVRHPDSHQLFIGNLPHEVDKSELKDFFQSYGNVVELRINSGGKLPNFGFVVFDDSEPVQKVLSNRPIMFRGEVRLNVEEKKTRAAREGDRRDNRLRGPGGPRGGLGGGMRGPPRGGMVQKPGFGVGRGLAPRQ
Method: RNA Bind-n-Seq
Form: RNA
Medium: in vitro
Tested at: 1 µM
Notes: whole 134-nt RNA, ends assumed
Added: 150 mM KCl
Relative to: input library
Direction: higher = stronger binding
Constant ends, left off below: GGGAGUUCUACAGUCCGACGAUC … UGGAAUUCUCGGGUGUCAAGG
| Oligonucleotide | log2 enrichment |
| --- | --- |
| UCCUGUGCUACACAUCGUAUGUACCGAAUCGGGGAAAAAAGGGAAAAAAGGAAAAAAGGGAAAGUAUUAUGUUACGCCGUUCGGAUCUGC | -0.994 |
| CCUGUGCUACACAUCGUAUGUACCGAAUCGGGCCCCCCCGGGCCCCCCCGGCCCCCCCGGAAAGUAUUAUGUUACGCCGUUCGGAUCUGC | -1.4 |
| UCCUGUGCUACACAUCGUAUGUACCGAAUCGGCCCCCCGGGGCCCCCCGGCCCCCCGGGAAAGUAUUAUGUUACGCCGUUCGGAUCUGCA | -1.3 |
| GUCCUGUGCUACACAUCGUAUGUACCGAAUCGGUUUUUUGGGGUUUUUUGGUUUUUUGGAAAGUAUUAUGUUACGCCGUUCGGAUCUGCA | -1.39 |
| UGGCCCUGGUGGCAUGCGGGGAGGAAGCGGUGGCCUCAUGGAUCGUGGUGGUCCCGGUGGAAUGUUCAGAGGUGGCCGUGGUGGAGACAG | 1.76 |

Study 3
Target: Interferon regulatory factor 7, full length, phosphomimetic (IRF7, Homo sapiens, UniProt Q92985, residues 1-503, S471D/S472D/S475D/S476D/S477D/S483D/S484D/S487D)
Method: protein-binding microarray
Form: double-stranded DNA, one strand shown
Medium: in vitro
Tested at: 2200 nM top
Notes: 60-bp whole probe
Added: salmon DNA 0.4 mg/ml
Relative to: random background probes
Direction: higher = stronger binding
Target sequence (chain): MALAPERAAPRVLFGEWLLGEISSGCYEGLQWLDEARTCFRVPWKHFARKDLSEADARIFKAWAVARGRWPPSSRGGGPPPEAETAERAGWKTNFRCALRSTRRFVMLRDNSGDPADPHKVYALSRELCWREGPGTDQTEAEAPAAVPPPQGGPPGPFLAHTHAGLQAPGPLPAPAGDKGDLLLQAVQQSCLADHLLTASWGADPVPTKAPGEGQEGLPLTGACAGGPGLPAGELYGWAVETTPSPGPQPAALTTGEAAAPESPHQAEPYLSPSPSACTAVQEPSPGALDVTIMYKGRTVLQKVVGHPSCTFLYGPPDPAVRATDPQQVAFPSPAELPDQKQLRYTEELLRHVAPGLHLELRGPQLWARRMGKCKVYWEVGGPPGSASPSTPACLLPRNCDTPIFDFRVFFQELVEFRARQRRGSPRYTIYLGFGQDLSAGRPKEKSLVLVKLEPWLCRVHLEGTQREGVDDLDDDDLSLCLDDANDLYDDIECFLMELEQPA
| Oligonucleotide | fitted relative affinity |
| --- | --- |
| GCCTAGCACCTCCAACAAGGCTATCCCTCGTGCTAGGTCTTGATTCGCTTGACGCTGCTG | 0.456 z-score |
| GCCTAGCACTTAGATTTCGGGACAGGATTAGTGCTAGTCTTGATTCGCTTGACGCTGCTG | 1.08 z-score |
| GCCTAGCACTAAGAACTGGGGACTGGATTAGTGCTAGTCTTGATTCGCTTGACGCTGCTG | -0.448 z-score |
| GCCTAGCACTCATATCTCTGTTTTTGACTGTGCTAGGTCTTGATTCGCTTGACGCTGCTG | 1.85 z-score |

Other studies, line by line
| Substance | target | assay | system | conditions | how to read | endpoint | result |
| --- | --- | --- | --- | --- | --- | --- | --- |
| PhoQ, residues 284 288 289 292 302 303 GLASVI | PhoP, residues 12 14 15 18 19 AQALL (Escherichia coli, UniProt P23836) | Sort-seq, item: YFP reporter | E. coli | PhoQ-PhoP variant library, added: 10 µM Mg2+ | relative to: high Mg2+ state, higher = stronger signaling | fold induction | 17.1 |

Repeated from above (study 3):
| Oligonucleotide | fitted relative affinity |
| --- | --- |
| GCCTAGCACTTAGATTTCGGGACAGGATTAGTGCTAGTCTTGATTCGCTTGACGCTGCTG | 1.08 z-score |
